Experimental data of several laboratories.
“And” joins repeats or separate records; there may be more than shown. ± marks the error that the study gave.
rep main protease: Replicase polyprotein 1ab, main protease (rep, Severe acute respiratory syndrome coronavirus 2, UniProt P0DTD1)

For `CC1(C)CCC(C)(C)c2cc(C(=O)Nc3ccc(C(=O)O)cc3)ccc21`, the inhibition was 41.1% (SARS-CoV-2; viral replication; Vero E6, USA-WA1/2020; 2.5 µM).
With `CC(=O)O[C@H]1CC[C@]2(C)[C@H]3CC[C@]4(C)Oc5oc(C)cc(=O)c5C[C@H]4[C@]3(C)CC[C@H]2C1(C)C` the inhibition was 102% (SARS-CoV-2; viral replication; mNeonGreen reporter; 50 µM).
`O=C(CSc1nc2c(c(=O)[nH]1)CCCC2)NNC(=O)c1ccc(Cl)cc1` gave an inhibition of 40 ± 10% (SARS-CoV-2; viral replication, plaque reduction; 125 µM).
For `CNC(=O)[C@@H](NC(=O)[C@H](CC(C)C)[C@H](O)C(=O)NO)C(C)(C)C`, the inhibition was 15.2% and 15.5% and 15.7% (prothrombin time; human platelet-poor plasma; 10 µM, with: AP venom).
The inhibition of `O=C(CSc1nc2ccccc2c(=O)[nH]1)NNC(=O)c1ccccc1Br` is reported as 25.6 ± 5.1% (SARS-CoV-2; virucidal activity, plaque reduction; 31.25 µM).
With `C[C@]12CC[C@@H]3c4ccc(OC(=O)c5cccnc5)cc4CC[C@H]3[C@@H]1CC[C@@H]2OC(=O)c1cccnc1` the inhibition was 46.2% (SARS-CoV-2; viral replication; Vero E6, USA-WA1/2020; 2.5 µM).
`CCOC(=O)[C@H]1O[C@@H]1C(=O)N[C@@H](CC(C)C)C(=O)NCCC(C)C` gave an inhibition of 48.9% and 88.3% (SARS-CoV-2; 30 µM).
`CC(C)(C)[C@H](NC(=O)C(F)(F)F)C(=O)N1C[C@H]2[C@@H]([C@H]1C(=O)N[C@H](C#N)C[C@@H]1CCNC1=O)C2(C)C` has an inhibition of 5.79% (SARS-CoV-2; viral replication, infectious virus; Vero E6; 0.00046 µM).
`CNC(=O)[C@@]1(O)C(=O)n2c(c(OC)c3ccccc32)-c2[nH]c3ccc(Cl)cc3c21` has an inhibition of 0.44% (SARS-CoV-2; viral replication, mNeonGreen reporter virus; 50 µM).
`CC(C)=CCc1c(O)ccc(C(=O)/C=C/c2ccc(O)cc2)c1O` gave an inhibition of 0% (SARS-CoV-2; viral cytopathic effect; Vero E6; 25 µM).
`Cn1cnc(Cn2c(=O)[nH]/c(=N\c3cc4cn(C)nc4cc3Cl)n(Cc3cc(F)c(F)cc3F)c2=O)n1` gave an inhibition of 0% (SARS-CoV-2; viral replication; Vero C1008, wild type; 0.01715 µM).
For `NC(=O)[C@@H](CCC(F)(F)F)N(Cc1ccc(-c2ncon2)cc1F)S(=O)(=O)c1ccc(Cl)cc1`, the inhibition was 0.683% (rep main protease; reporter gene (Gaussia luciferase), inhibitor; 20 µM).
`O=C(/C=C/c1ccc(O)c(O)c1/C=C/c1ccc(O)c(O)c1)O[C@H](Cc1ccc(O)c(O)c1)C(=O)O` has an inhibition of 0% (SARS-CoV-2; cytopathic effect; Vero E6; 12.5 µM, first run).
For `Cc1nn(-c2ccc(Cl)cc2)c2c1C(c1ccc(I)cc1)C(C#N)=C(N)O2` (stereo not drawn), the inhibition was 58.1% (SARS-CoV-2; viral replication; Vero; 10 µM).
With `COc1ccc(C[C@@H]2c3cc(Oc4cc(C[C@@H]5c6cc(O)c(OC)cc6CCN5C)ccc4O)c(OC)cc3CCN2C)cc1` the inhibition was 25% (SARS-CoV-2; cytopathic effect; Vero E6; 50 µM, replicate run).
With `COc1cc(C2C(C#N)=C(N)Oc3c2c(C)nn3-c2ccc(Cl)cc2)cc(OC)c1OC` (stereo not drawn) the inhibition was 28.4% (SARS-CoV-2; viral replication; Vero; 1 µM).
With `CC(C)CCC(=O)CC1c2ccccc2C(=O)N1c1ccc2ccc(Cl)nc2n1` (stereo not drawn) the inhibition was 42.9% (SARS-CoV-2; viral replication; Vero E6, USA-WA1/2020; 2.5 µM).
For `O=C(CSc1nc2c(c(=O)[nH]1)CCCC2)NNC(=O)c1ccc([N+](=O)[O-])cc1`, the inhibition was 38.9 ± 1.91% (SARS-CoV-2; viral replication, plaque reduction; 62.5 µM).
The inhibition of `CN1Cc2cc(Cl)ccc2-n2c(nnc2[C@H]2CC[C@H](Oc3ccccn3)CC2)C1` is reported as 52.6% (SARS-CoV-2; viral replication; Vero E6, USA-WA1/2020; 2.5 µM).
The inhibition of `CN(C)c1ccc(N(Cc2cc(Cl)cs2)C(=O)Cc2cncc3cccc(O)c23)cc1` is reported as 84.8% (SARS-CoV-2; viral replication, refers to: nucleocapsid; NHBE, Omicron BA.5; 1 µM, 3 h pretreatment).
For `C=CC(C)(C)c1[nH]c2ccccc2c1-c1c(O)c(OC)c2c(c1OC)O[C@H]1Nc3ccccc3[C@@]21O`, the inhibition was 88.5% (SARS-CoV-2; viral replication, mNeonGreen reporter virus; 50 µM).
For `C/C1=C\CC[C@@]2(C)O[C@@H]2[C@H]2OC(=O)[C@H](CN(C)C)[C@@H]2CC1`, the inhibition was 40.8% (SARS-CoV-2; viral replication; Vero E6, USA-WA1/2020; 2.5 µM).
`Nc1ncnc2c([C@@H]3N[C@H](CO)[C@@H](O)[C@H]3O)c[nH]c12` has an inhibition of 85.6% (Junin virus; viral replication; HeLa, Romero; 100 µM).
`COc1cc2c(cc1N1C[C@@H](C)N[C@@H](C)C1)N(C(=O)c1ccc(-c3ccc(-c4noc(C)n4)cc3C)cc1)CC2` gave an inhibition of 76.5% (SARS-CoV-2; viral replication; Vero E6, USA-WA1/2020; 2.5 µM).
The serum amylase of `CC[C@H](C)[C@H](NC(=O)[C@H](CC(C)C)NC(=O)[C@H](Cc1c[nH]c2ccccc12)NC(=O)[C@H](CCC(N)=O)NC(=O)[C@@H](NC(=O)[C@H](Cc1ccccc1)NC(=O)[C@H](C)NC(=O)[C@H](CCCCNC(=O)COCCOCCNC(=O)COCCOCCNC(=O)CC[C@H](NC(=O)CCCCCCCCCCCCCCCCCCC(=O)O)C(=O)O)NC(=O)[C@H](CCC(N)=O)NC(=O)[C@H](C)NC(=O)[C@@H](NC(=O)[C@H](CCCCN)NC(=O)[C@H](CC(=O)O)NC(=O)[C@H](CC(C)C)NC(=O)C(C)(C)NC(=O)[C@@H](NC(=O)[C@H](CO)NC(=O)[C@H](Cc1ccc(O)cc1)NC(=O)[C@H](CC(=O)O)NC(=O)[C@H](CO)NC(=O)[C@@H](NC(=O)[C@H](Cc1ccccc1)NC(=O)[C@@H](NC(=O)CNC(=O)[C@H](CCC(=O)O)NC(=O)C(C)(C)NC(=O)[C@@H](N)Cc1ccc(O)cc1)[C@@H](C)O)[C@@H](C)O)[C@@H](C)CC)[C@@H](C)CC)C(C)C)C(=O)N[C@@H](C)C(=O)NCC(=O)NCC(=O)N1CCC[C@H]1C(=O)N[C@@H](CO)C(=O)N[C@@H](CO)C(=O)NCC(=O)N[C@@H](C)C(=O)N1CCC[C@H]1C(=O)N1CCC[C@H]1C(=O)N1CCC[C@H]1C(=O)N[C@@H](CO)C(N)=O` is reported as 81 ± 17.7 U/L (healthy subjects, single ascending dose; 2.5 mg, baseline).
With `CCN(CCO)CCCC(C)Nc1ccnc2cc(Cl)ccc12` (stereo not drawn) the inhibition was 7.37% (SARS-CoV-2; 0.47 µM).
Under “anaemia TEAE, Severe severity”, `Cn1cnc(Cn2c(=O)[nH]/c(=N\c3cc4cn(C)nc4cc3Cl)n(Cc3cc(F)c(F)cc3F)c2=O)n1` is recorded as 0% (human, severe renal impairment; oral, 375 mg).
With `O=C(O)c1cc(Oc2ccc([N+](=O)[O-])cc2)cc(Oc2ccc([N+](=O)[O-])cc2)c1` the inhibition was 3.11% (rep main protease; reporter gene (Gaussia luciferase), inhibitor; 20 µM).
For `Cc1nn(-c2ccc(Cl)cc2)c2c1C(c1ccc(F)cc1F)C(C#N)=C(N)O2` (stereo not drawn), the inhibition was 0.758% (SARS-CoV-2; viral replication; Vero; 1 µM).
`CCc1occc(=O)c1[O][V](=[O])[O]c1c(CC)occc1=O` has an inhibition of 41% (SARS-CoV-2; viral replication; USA-WA1/2020; 2.5 µM).
With `O=C(O[C@@H]1Cc2c(O)cc(O)cc2O[C@@H]1c1cc(O)c(O)c(O)c1)c1cc(O)c(O)c(O)c1` the inhibition was 0% (SARS-CoV-2; cytopathic effect; Vero E6; 12.5 µM, first run).
With `COc1ccc2cc1Oc1ccc(cc1)C[C@H]1c3c(cc4c(c3Oc3cc5c(cc3OC)CCN(C)[C@@H]5C2)OCO4)CCN1C` the inhibition was 40.6% (SARS-CoV-2; viral replication; Vero E6, USA-WA1/2020; 2.5 µM).
With `CC(C)(C)[C@H](NC(=O)C(F)(F)F)C(=O)N1[C@@H]2CC[C@@H](C2)[C@H]1C(=O)N[C@H](C#N)C[C@@H]1CCNC1=O` the inhibition was 0% (SARS-CoV-2; viral replication, qRT-PCR viral RNA; Vero E6; 1 µM).

For quick reference, copied from above:
The inhibition of `CN(C)c1ccc(N(Cc2cc(Cl)cs2)C(=O)Cc2cncc3cccc(O)c23)cc1` is reported as 84.8% (SARS-CoV-2; viral replication, refers to: nucleocapsid; NHBE, Omicron BA.5; 1 µM, 3 h pretreatment).
For `C=CC(C)(C)c1[nH]c2ccccc2c1-c1c(O)c(OC)c2c(c1OC)O[C@H]1Nc3ccccc3[C@@]21O`, the inhibition was 88.5% (SARS-CoV-2; viral replication, mNeonGreen reporter virus; 50 µM).
For `C/C1=C\CC[C@@]2(C)O[C@@H]2[C@H]2OC(=O)[C@H](CN(C)C)[C@@H]2CC1`, the inhibition was 40.8% (SARS-CoV-2; viral replication; Vero E6, USA-WA1/2020; 2.5 µM).
`Nc1ncnc2c([C@@H]3N[C@H](CO)[C@@H](O)[C@H]3O)c[nH]c12` has an inhibition of 85.6% (Junin virus; viral replication; HeLa, Romero; 100 µM).
`COc1cc2c(cc1N1C[C@@H](C)N[C@@H](C)C1)N(C(=O)c1ccc(-c3ccc(-c4noc(C)n4)cc3C)cc1)CC2` gave an inhibition of 76.5% (SARS-CoV-2; viral replication; Vero E6, USA-WA1/2020; 2.5 µM).
The serum amylase of `CC[C@H](C)[C@H](NC(=O)[C@H](CC(C)C)NC(=O)[C@H](Cc1c[nH]c2ccccc12)NC(=O)[C@H](CCC(N)=O)NC(=O)[C@@H](NC(=O)[C@H](Cc1ccccc1)NC(=O)[C@H](C)NC(=O)[C@H](CCCCNC(=O)COCCOCCNC(=O)COCCOCCNC(=O)CC[C@H](NC(=O)CCCCCCCCCCCCCCCCCCC(=O)O)C(=O)O)NC(=O)[C@H](CCC(N)=O)NC(=O)[C@H](C)NC(=O)[C@@H](NC(=O)[C@H](CCCCN)NC(=O)[C@H](CC(=O)O)NC(=O)[C@H](CC(C)C)NC(=O)C(C)(C)NC(=O)[C@@H](NC(=O)[C@H](CO)NC(=O)[C@H](Cc1ccc(O)cc1)NC(=O)[C@H](CC(=O)O)NC(=O)[C@H](CO)NC(=O)[C@@H](NC(=O)[C@H](Cc1ccccc1)NC(=O)[C@@H](NC(=O)CNC(=O)[C@H](CCC(=O)O)NC(=O)C(C)(C)NC(=O)[C@@H](N)Cc1ccc(O)cc1)[C@@H](C)O)[C@@H](C)O)[C@@H](C)CC)[C@@H](C)CC)C(C)C)C(=O)N[C@@H](C)C(=O)NCC(=O)NCC(=O)N1CCC[C@H]1C(=O)N[C@@H](CO)C(=O)N[C@@H](CO)C(=O)NCC(=O)N[C@@H](C)C(=O)N1CCC[C@H]1C(=O)N1CCC[C@H]1C(=O)N1CCC[C@H]1C(=O)N[C@@H](CO)C(N)=O` is reported as 81 ± 17.7 U/L (healthy subjects, single ascending dose; 2.5 mg, baseline).
